Measurements pooled from the literature.
Each line is one published result; not all experiments were run side by side. Values joined by “and” are separate records of one study, mostly repeats; a detail may differ. ± marks the error that the study gave.
rep main protease: Replicase polyprotein 1ab, main protease (rep, Severe acute respiratory syndrome coronavirus 2, UniProt P0DTD1)
rep nsp14: Replicase polyprotein 1ab, nsp14 (rep, Severe acute respiratory syndrome coronavirus 2, UniProt P0DTD1)
rep methyltransferase: Replicase polyprotein 1ab, methyltransferase (rep, Severe acute respiratory syndrome coronavirus 2, UniProt P0DTD1)
rep papain-like protease: Replicase polyprotein 1ab, papain-like protease (rep, Severe acute respiratory syndrome coronavirus 2, UniProt P0DTD1)
rep nsp13 helicase: Replicase polyprotein 1ab, nsp13 helicase (rep, Severe acute respiratory syndrome coronavirus 2, UniProt P0DTD1)

CCOC(=O)ONC(=O)CCc1ccccc1 — IC50 (rep main protease; enzyme activity, inhibitor, FRET): 0.15 µM
O=c1cc(-c2ccc(O)cc2)oc2c(C3OC(CO)C(O)C(O)C3O)c(O)c(C3OC(CO)C(O)C(O)C3O)c(O)c12 (centres unmarked) — IC50 (rep main protease; enzyme activity, inhibitor): 1.43 µM
N#Cc1ccccc1C[C@@H](N)C(=O)N[C@H](Cc1ccc(Cl)cc1Cl)C(=O)N[C@H](CC(N)=O)Cc1ccc(F)cc1 — IC50 (rep main protease; enzyme activity, inhibitor, fluorescence): 0.8 µM
Nc1ncnc2c1ncn2[C@@H]1O[C@H](CSCc2ccc(Cl)cc2Cl)[C@@H](O)[C@H]1O — IC50 (rep nsp14; methyltransferase activity, radiometric; with: 3H-SAM): < 5 µM and 4.2 µM
Nc1nnc(SC2CC(=O)N(c3cccc4ccccc34)C2=O)s1 (centres unmarked) — IC50 (rep main protease; enzyme activity, inhibitor; 10 min preincubation, 30 nM enzyme, with: 20 µM substrate): 1.89 ± 0.22 µM
Brc1c(Br)c(Br)c2[nH]nnc2c1Br — IC50 (rep methyltransferase; enzyme activity, inhibitor; pH 7.5): < 10 µM and 9.9 µM
CC(=O)Oc1ccc(/C=C/C(=O)O[C@@H]2Cc3c(O)cc(O)cc3O[C@@H]2c2cc(O)c(O)c(O)c2)cc1 — IC50 (rep main protease; enzyme activity, inhibitor, FRET): 32 µM
O=C(NCCc1cccnc1)C(c1cncnc1)N(C(=O)C(F)Cl)c1ccc(S(F)(F)(F)(F)F)cc1 (centres unmarked) — IC50 (rep main protease; enzyme activity, inhibitor): 0.14 µM
CCc1ccccc1NC(=S)N/N=C/c1ccccc1O — IC50 (rep main protease; enzyme activity, inhibitor, FRET): 33.4 µM
CC(C)(C)c1ccc(NC(=O)NCCC[C@H](CNCc2ccccc2)C[C@H]2O[C@@H](n3cnc4c(N)ncnc43)[C@H](O)[C@@H]2O)cc1 — IC50 (rep nsp14; nsp14 methyltransferase activity, inhibitor, radiometric SPA; 20 min, with: 3H-SAM 250 nM, RNA 50 nM): 95 ± 6 µM
N#Cc1ccccc1C[C@@H](N)C(=O)N[C@H](Cc1ccc(Cl)cc1Cl)C(=O)N[C@H](CC(=O)NCCNc1nnc(N)[nH]1)Cc1ccc(F)cc1 — IC50 (rep main protease; enzyme activity, inhibitor, fluorescence): 0.3 µM and 0.6 µM
CC1(C)C2CCC1(C)C(n1[se]c3ccccc3c1=O)C2 (centres unmarked) — IC50 (rep main protease; enzyme activity, inhibitor): 0.203 µM
C=CC(=O)NC(CC(=C)C)C(=O)N1CC(C(=O)NC(Cc2ccco2)C(=O)NC)C(c2cccc(C(F)(F)F)c2)C1 (centres unmarked) — IC50 (rep main protease): 22.8 µM
CC(C)[C@@H]1CC[C@@H](C)C[C@H]1NC(=O)c1ccccc1[Se][Se]c1ccccc1C(=O)N[C@@H]1C[C@H](C)CC[C@H]1C(C)C — IC50 (rep main protease; enzyme activity, inhibitor): 8.33 µM
CN(C)C(=O)On1nnc2ccccc21 — IC50 (rep main protease; enzyme activity, inhibitor): > 100 µM
CCC(C(=O)Nc1ccc(C)cc1)n1c(SCc2ccc(F)cc2)nc2ncccc21 (centres unmarked) — IC50 (rep papain-like protease; enzyme activity, inhibitor): > 20 µM
CC1CC(c2ccc(C(=O)O)s2)=NN1c1ccc(C#N)c(Cl)c1 (centres unmarked) — IC50 (rep methyltransferase; enzyme activity, inhibitor): 0.794 µM
C#CCCCNC(=O)CC(Cc1ccc(F)cc1)NC(=O)C(Cc1ccc(Cl)cc1Cl)NC(=O)C(N)Cc1ccccc1C#N (centres unmarked) — IC50 (rep main protease; enzyme activity, inhibitor, fluorescence): 0.1 µM
CCC1c2ccsc2CCN1C(=O)c1cn(C2CCNCC2)nn1 (racemic) — IC50 (rep main protease; enzyme activity, inhibitor): > 100 µM
O=C(c1cncc(Br)c1)N1CCN(C(c2ccccc2)c2ccc(Cl)cc2)CC1 (racemic) — IC50 (rep main protease; enzyme activity, inhibitor): 0.69 µM
O=C1CC(c2ccccc2)Oc2ccccc21 (centres unmarked) — IC50 (rep nsp13 helicase; helicase unwinding activity, inhibitor): 6.48 ± 0.53 µM
Cc1oc2nc1C(=O)N[C@](C)(C(=O)O)c1nc(c(C)o1)C(=O)N[C@](C)(C(=O)O)c1nc(c(C)o1)C(=O)N[C@]2(C)C(=O)O — IC50 (rep main protease; enzyme activity, inhibitor): 3.82 µM and 3.8 µM
C=CCn1c(C)cc(C(=O)COn2nnc3ccc(S(=O)(=O)N(C)C)cc32)c1C — IC50 (rep main protease; enzyme activity, inhibitor): 1.67 µM
O=C(O[C@@H]1Cc2c(O)cc(O)cc2O[C@@H]1c1ccc(O)c(O)c1)c1cc(O)c(O)c(O)c1 — IC50 (rep main protease; enzyme activity, inhibitor): 71.8 µM
O=C(Nc1nc2c(s1)CN(Cc1ccccc1)CC2)c1ccc2c(=O)n3c(nc2c1)CCCCC3 — IC50 (rep main protease; enzyme activity, inhibitor): ~288 µM
COc1ccc(F)c2[nH]c(C(=O)N[C@@H](CC(C)C)C(=O)N[C@@H](C[C@@H]3CCNC3=O)C(=O)c3nc4ccccc4s3)cc12 — IC50 (rep main protease; enzyme activity, inhibitor): 0.054 µM
Nc1ncnc2c1ncn2[C@@H]1O[C@H](CSCc2cc(C#CCO)cc(C(=O)O)c2)[C@@H](O)[C@H]1O — IC50 (Replicase polyprotein 1ab, nsp16 with nsp10 (rep, Severe acute respiratory syndrome coronavirus 2, UniProt P0DTD1); methyltransferase activity, inhibitor; 30 min, 30 °C, with: SAM 10 µM): 0.0046 ± 0.0002 µM
CC(=O)N[C@@H](Cc1ccc(O)cc1)C(=O)N[C@@H](CC(=O)O)C(=O)N[C@@H](C)C(=O)N[C@@H](Cc1ccccc1)C(=O)N[C@@H](Cc1ccc(O)cc1)C(=O)N[C@@H](C)C(=O)N[C@@H](Cc1ccc(O)cc1)C(=O)N[C@H](C(=O)N[C@H](C(=O)N[C@@H](Cc1ccccc1)C(=O)N[C@@H](Cc1c[nH]cn1)C(=O)N[C@H](C(=O)N[C@@H](C)C(=O)N[C@H](C(N)=O)[C@@H](C)O)C(C)C)[C@@H](C)O)C(C)C — IC50 (rep main protease; enzyme activity, inhibitor): > 16 µM
CC(C)=CCc1c(O)ccc(-c2coc3cc(O)cc(O)c3c2=O)c1O — IC50 (Replicase polyprotein 1ab, nsp12 with nsp7/nsp8 (rep, Severe acute respiratory syndrome coronavirus 2, UniProt P0DTD1); RdRp polymerase activity, inhibitor; SARS-CoV-2): 47.3 µM
CNc1nc(NCc2cccc(NC(=O)CCl)c2)nc(Nc2cccc3cnccc23)n1 — IC50 (rep papain-like protease; enzyme activity, inhibitor, fluorescence): 0.78 µM
CNC(=O)C[C@H](Cc1ccc(F)cc1)NC(=O)[C@@H](Cc1ccc(Cl)cc1Cl)NC(=O)[C@H](N)Cc1ccccc1C#N — IC50 (rep main protease; enzyme activity, inhibitor, fluorescence): 0.3 µM
Cc1cc(C)nc(Sc2nc3sccn3c2[N+](=O)[O-])n1 — IC50 (rep main protease; enzyme activity, inhibitor, FRET): 75.6 µM
CC1(C)C2CCC(CNC(=O)c3ccccc3[Se][Se]c3ccccc3C(=O)NCC3CCC4CC3C4(C)C)C1C2 (centres unmarked) — IC50 (rep main protease; enzyme activity, inhibitor): 6.13 µM
Cc1ccc(OCCN(C)C)cc1C(=O)N[C@H](C)c1cc(-c2cnn(C)c2)cc(-c2cnn(C(C)C)c2)c1 — IC50 (rep papain-like protease; enzyme activity, inhibitor, FRET): 0.109 µM
COc1ccc([C@H]2OC[C@H]3[C@@H]2CO[C@@H]3c2ccc(O[C@@H]3O[C@H](CO)[C@@H](O)[C@H](O)[C@H]3O)c(OC)c2)cc1OC — IC50 (rep main protease; enzyme activity, inhibitor, FRET): 11.5 ± 0.58 µM
CCC(C(=O)Nc1cccc(F)c1)n1c(SCc2ccc(F)cc2)nc2ncccc21 (centres unmarked) — IC50 (rep papain-like protease; enzyme activity, inhibitor): > 20 µM
COc1cc(C(=O)N(CCC(=O)N2CCNCC2)Cc2cccc(Cl)c2)cc(OC)c1OC — IC50 (Replicase polyprotein 1ab, nsp3 macrodomain (rep, Severe acute respiratory syndrome coronavirus 2, UniProt P0DTD1); ADP-ribose binding, inhibitor, fluorescence polarization; Mac1 domain, SARS-CoV-2): 338 ± 4.9 µM
O=c1cc(-c2ccc(OC3O[C@H](CO)[C@@H](O)[C@H](O)[C@H]3O)c(O)c2)oc2cc(O)cc(O)c12 (some centres unmarked) — IC50 (rep nsp13 helicase; helicase unwinding activity): > 30 µM
C[C@@H](Cc1ccc(O)c(O)c1)[C@@H](C)Cc1ccc(O)c(O)c1 — IC50 (rep papain-like protease; enzyme activity, inhibitor, FRET): 16.3 µM
CNC(=O)C[C@H](Cc1ccncc1)NC(=O)[C@@H](Cc1cccc(Br)c1)NC(=O)[C@@H](N)Cc1ccsc1 — IC50 (rep main protease; enzyme activity, inhibitor, fluorescence): 4 µM
CC1CC(c2ccc(C(=O)O)o2)=NN1c1ccc(C#N)c(Cl)c1 (centres unmarked) — IC50 (rep methyltransferase; enzyme activity, inhibitor): 63.1 µM
CCCCCCCCCCCCCCCc1cc(O)cc(O)c1 — IC50 (rep main protease; enzyme activity, inhibitor; with preincubation): > 100 µM
COC(=O)c1cc2c(=O)n3ccccc3nc2n1Cc1ccccc1 — IC50 (rep main protease; enzyme activity, inhibitor): 329 µM
COc1ccc(-c2cc(=O)c3c(O)cc(O)c(-c4cc(-c5cc(=O)c6c(O)cc(OC)cc6o5)ccc4OC)c3o2)cc1 — IC50 (rep main protease; enzyme activity, inhibitor; 3 min preincubation): 8.14 µM
Cc1ccc(OCCN(C)C)cc1C(=O)N[C@H](C)c1cc(-c2cnn(CCN3CCOCC3)c2)cc(-c2ccn(C)n2)c1 — IC50 (rep papain-like protease; enzyme activity, inhibitor, FRET): 0.117 µM
O=c1c2ccccc2sn1-c1ccccc1 — IC50 (rep main protease; enzyme activity, inhibitor; 5 min preincubation): 0.19 ± 0.01 µM
O=C(CCc1ccccc1)NOC(=O)OCc1ccccc1 — IC50 (rep main protease; enzyme activity, inhibitor, FRET): 0.12 µM

Excerpt of the above:
N#Cc1ccccc1C[C@@H](N)C(=O)N[C@H](Cc1ccc(Cl)cc1Cl)C(=O)N[C@H](CC(=O)NCCNc1nnc(N)[nH]1)Cc1ccc(F)cc1 — IC50 (rep main protease; enzyme activity, inhibitor, fluorescence): 0.3 µM and 0.6 µM
CC1(C)C2CCC1(C)C(n1[se]c3ccccc3c1=O)C2 (centres unmarked) — IC50 (rep main protease; enzyme activity, inhibitor): 0.203 µM
